Measured values collected from several papers.
A part holds a random share of what one study measured. Changes are numbered by the printed parent chain.

Series 1
Target: Sal-like protein 4, full length isoform A (SALL4, Homo sapiens, UniProt Q9UJQ4, residues 1-1053)
Sequence of UniProt Q9UJQ4 (whole entry, looked up): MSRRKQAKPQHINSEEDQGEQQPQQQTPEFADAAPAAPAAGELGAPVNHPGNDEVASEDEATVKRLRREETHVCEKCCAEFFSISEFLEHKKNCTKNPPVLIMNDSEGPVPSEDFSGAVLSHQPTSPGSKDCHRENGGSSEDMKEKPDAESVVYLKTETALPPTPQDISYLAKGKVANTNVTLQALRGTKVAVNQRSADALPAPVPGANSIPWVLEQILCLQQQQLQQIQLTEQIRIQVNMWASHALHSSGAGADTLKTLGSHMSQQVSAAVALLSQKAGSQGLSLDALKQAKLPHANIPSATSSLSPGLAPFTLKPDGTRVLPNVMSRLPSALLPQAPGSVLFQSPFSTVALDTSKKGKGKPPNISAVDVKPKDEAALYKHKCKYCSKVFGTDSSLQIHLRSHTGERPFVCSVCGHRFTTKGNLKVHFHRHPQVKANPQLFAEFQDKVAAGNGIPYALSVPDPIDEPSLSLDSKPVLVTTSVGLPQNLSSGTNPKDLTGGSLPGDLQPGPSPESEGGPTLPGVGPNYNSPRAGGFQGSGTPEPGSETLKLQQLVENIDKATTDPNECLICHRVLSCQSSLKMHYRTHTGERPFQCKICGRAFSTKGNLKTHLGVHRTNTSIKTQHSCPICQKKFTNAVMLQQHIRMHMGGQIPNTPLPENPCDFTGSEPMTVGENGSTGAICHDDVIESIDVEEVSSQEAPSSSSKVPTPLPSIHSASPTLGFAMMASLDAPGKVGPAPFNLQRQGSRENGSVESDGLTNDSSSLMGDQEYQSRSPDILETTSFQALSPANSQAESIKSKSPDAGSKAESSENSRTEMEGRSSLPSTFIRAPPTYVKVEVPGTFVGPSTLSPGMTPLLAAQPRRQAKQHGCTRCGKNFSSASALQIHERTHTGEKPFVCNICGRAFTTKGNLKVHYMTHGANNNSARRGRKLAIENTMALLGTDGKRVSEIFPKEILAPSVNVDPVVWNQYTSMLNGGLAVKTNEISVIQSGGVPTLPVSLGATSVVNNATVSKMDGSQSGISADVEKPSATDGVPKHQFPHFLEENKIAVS
Technique: universal PBM
Molecule type: double-stranded DNA, one strand shown
Matrix: in vitro
Tested at: 600 nM
Notes: 8-mer, flanks averaged, mean of replicates
Direction: higher = stronger binding
Sequence	E-score
CCCGCTTC	-0.313
GACGGCAC	-0.232
GAGGGTCC	-0.326
GCGTGGAA	-0.156
TGTTGAAA	0.212
ATCACGGG	-0.124
TACCGCTA	0.0131
AGTTAACA	0.203
AGCTTTGG	-0.0823
ATGGACAT	0.136
GCCATATA	0.239
GTGCAACA	-0.0783
CTGATAGC	0.00313
GGGGGACC	-0.403

Series 2
Target: ABI1, truncated, D143A, DHFR fusion (Arabidopsis thaliana)
Technique: DHFR PCA, deep sequencing
Matrix: yeast
Notes: methotrexate growth selection, single substitutions
Added: (+)-ABA 2500 µM
Reference: wild-type fitted maximum
Direction: higher = stronger binding
Starting sequence: PYL1, truncated, DHFR fusion (Arabidopsis thaliana); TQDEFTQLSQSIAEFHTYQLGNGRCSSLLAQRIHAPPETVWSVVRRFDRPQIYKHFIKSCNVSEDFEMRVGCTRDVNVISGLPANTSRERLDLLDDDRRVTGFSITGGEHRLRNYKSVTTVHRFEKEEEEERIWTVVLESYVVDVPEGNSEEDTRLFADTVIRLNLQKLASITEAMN; partner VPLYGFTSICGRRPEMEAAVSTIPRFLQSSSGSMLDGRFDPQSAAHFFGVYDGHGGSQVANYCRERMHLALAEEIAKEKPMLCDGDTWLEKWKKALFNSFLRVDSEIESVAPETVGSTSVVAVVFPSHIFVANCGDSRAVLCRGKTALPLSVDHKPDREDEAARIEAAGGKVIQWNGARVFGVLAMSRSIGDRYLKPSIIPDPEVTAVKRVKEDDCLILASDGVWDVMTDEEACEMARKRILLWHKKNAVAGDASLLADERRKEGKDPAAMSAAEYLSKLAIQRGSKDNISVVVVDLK
Variant	relative binding score [%]
A175S	95.4
S9C	94
L91F	59.4
I79Q	101
T173N	85.5

Series 3
Target: CCNE2, cyclin fold, Cln2 fusion (human)
Technique: yeast growth competition, sequencing
Matrix: yeast
Notes: strong parent motif
Reference: not given
Direction: higher = stronger binding
Starting sequence: BRCA2 docking peptide (human); PSIKRNLLNEFDR; partner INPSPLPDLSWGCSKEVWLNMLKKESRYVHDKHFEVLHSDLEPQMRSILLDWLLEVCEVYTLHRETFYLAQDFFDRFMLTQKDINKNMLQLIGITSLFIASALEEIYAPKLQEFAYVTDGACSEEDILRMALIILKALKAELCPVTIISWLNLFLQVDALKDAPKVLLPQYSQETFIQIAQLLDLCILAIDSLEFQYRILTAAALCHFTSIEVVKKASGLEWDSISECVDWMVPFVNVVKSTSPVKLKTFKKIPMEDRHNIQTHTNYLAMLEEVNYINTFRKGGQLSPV
Variant	normalised enrichment score
N9K	1.91
N9L	2.39
K4G	-0.374
E10H	0.986
E10I	1.31
L8P	0.17
F11R	0.768
L7V	-0.186
E10Y	1.31
D12Y	2.04
R13N	1.16

Other studies, line by line
Substance	target	assay	system	setting	how to read	measurement	result
PhoQ, residues 284 288 289 292 302 303 SMMNNA	PhoP, residues 12 14 15 18 19 YHFSH (Escherichia coli, UniProt P23836)	Sort-seq, refers to: YFP reporter	E. coli	PhoQ-PhoP variant library, added: 10 µM Mg2+	reference: high Mg2+ state, higher = stronger signaling	fold induction	28.1

Excerpt of the above (other studies, line by line):
Substance	target	assay	system	setting	how to read	measurement	result
PhoQ, residues 284 288 289 292 302 303 SMMNNA	PhoP, residues 12 14 15 18 19 YHFSH (Escherichia coli, UniProt P23836)	Sort-seq, refers to: YFP reporter	E. coli	PhoQ-PhoP variant library, added: 10 µM Mg2+	reference: high Mg2+ state, higher = stronger signaling	fold induction	28.1
